Experimental data from different studies.
Lines come from different studies, so protocols differ. ± marks the error that the study gave.

COC1C=COC2(C)Oc3c(C)c(O)c4c(c3C2=O)C2=NC3(CCN(CC(C)C)CC3)NC2=C(NC(=O)C(C)=CC=CC(C)C(O)C(C)C(O)C(C)C(OC(=O)c2cccnc2)C1C)C4=O (stereo not shown)
fAUC/MIC ratio (CD-1 mouse female, plasma; oral, 10 mg/kg): 50

CC(C)(O)c1ncc([S@](N)(=O)=NC(=O)Nc2c3c(cc4c2CCC4)CCC3)s1
half-life (human, plasma; oral, 600 mg, single dose, fasted, healthy volunteers): 684 min

COC(=O)c1ccc(-c2cn(Cc3cc(Cl)ccc3O[11CH3])nn2)cc1
distribution volume VT (PET, 1TCM; rhesus macaque, hypothalamus; dose not given): 0.588 mL/cm³

COC(=O)C(c1ccccc1Cl)N1CCC(SCC(=O)c2cccc(OC)c2)C(=CC(=O)O)C1 (mixture of isomers)
deviation from nominal (HPLC-MS/MS; feline EDTA plasma; 100 ng/mL, 48 h, 4 °C, storage stability): 1%

CC/C=C\C/C=C\C/C=C\C/C=C\C/C=C\CCCCOC(CC)C(=O)O (stereo not shown)
tissue concentration (radioactivity, 14C-labelled; Wistar rat, male, kidney medulla; oral, 100 mg/kg, 1 day): 34.5 µg equivalents/g tissue

CC(=O)N[C@H](C)c1cc(Cl)ccc1Cn1c(=S)[nH]c(=O)c2[nH]ccc21
exposure ratio (Sprague-Dawley rat, male, plasma; oral, 125 mg/kg/day; relative to: rat over human 10 mg): 1.2

[O-]c1cccc(-c2cccc([O-])n2)n1.[Ru+2].c1cnc2c(c1)ccc1cccnc12.c1cnc2c(c1)ccc1cccnc12
logP of basic form (shake flask; octanol/buffer): 1.7

O=C(CCCCC[N+]#[C][99Tc-5]([C]#[N+]CCCCCC(=O)N[C@H]1C(O)O[C@H](CO)[C@@H](O)[C@@H]1O)([C]#[N+]CCCCCC(=O)N[C@H]1C(O)O[C@H](CO)[C@@H](O)[C@@H]1O)([C]#[N+]CCCCCC(=O)N[C@H]1C(O)O[C@H](CO)[C@@H](O)[C@@H]1O)([C]#[N+]CCCCCC(=O)N[C@H]1C(O)O[C@H](CO)[C@@H](O)[C@@H]1O)[C]#[N+]CCCCCC(=O)N[C@H]1C(O)O[C@H](CO)[C@@H](O)[C@@H]1O)N[C@H]1C(O)O[C@H](CO)[C@@H](O)[C@@H]1O (stereo partly shown)
distribution half-life (CD-1 mouse, healthy, blood): 5.81 min

COc1ccc(/C=C/c2ccc(-c3ccc(C)cn3)nc2)cc1
radiative decay rate constant (TCSPC; EtOH): 0.39 ns⁻¹

COc1ccc(COC[C@](O)(CNCc2ccc(F)cc2)[C@@H]2CC[C@@H](C)C[C@H]2OCc2ccc(OC)cc2)cc1
permeability (PAMPA-GI; phosphatidylcholine-cholesterol membrane; 500 µM, 4 h, pH 6.5, 37 °C, 5% DMSO): 33.2 ± 3.3 ×10⁻⁶ cm/s

COc1cc(NC(C)=O)c2c(c1O)-c1c(OC)c(OC)cc3c1C(C2)N(C)CC3 (stereo not shown)
remaining compound (rat, plasma; 100 µg/mL, time not given, -20 °C to room temperature, three freeze-thaw cycles): 102 ± 4.2%

C[C@H](N)[C@H]1O[C@@H](O[C@@H]2[C@@H](O)[C@H](N)C[C@H](N)[C@H]2O[C@H]2O[C@H]([C@@H](C)O)[C@@H](O)[C@H](O)[C@H]2N)[C@H](O)[C@@H]1O
IC50 (outer hair cell loss; CBA/J mice, cochlear explant; 72 h): 15 µM

COCC1CN(C2CCN(c3cc(OC)c(Nc4ncc(Br)c(Nc5ccc6c(c5P(C)(C)=O)OCCO6)n4)cc3C)CC2)C1
patients with elevated serum creatinine (human; oral, 10 to 240 mg once daily, safety set, all grades): 22.2%

CCCC[C@@H]1NC(=O)[C@@H](NC(=O)[C@H](CCC(=O)O)NC(=O)CNC(=O)CN2CCN(CC(=O)O)CCN(CC(=O)O)CCN(CC(=O)O)CC2)CCCCNC(=O)C[C@@H](C(N)=O)NC(=O)[C@H](C(C)C)NC(=O)[C@@H]2CCCN2C(=O)[C@H](CCCNC(=N)N)NC(=O)CNC(=O)[C@H](Cc2c[nH]c3ccccc23)NC(=O)[C@H](CCCNC(=N)N)NC(=O)[C@@H](Cc2ccccc2)NC(=O)[C@H](Cc2c[nH]cn2)NC(=O)[C@H](CCC(=O)O)NC1=O [gallium-67 labelled]
lung uptake (normal C57 mice; intravenous, 0.037 MBq, 4 h): 0.17 ± 0.11 %ID/g

CC(C)(F)CC(NC(c1ccc(-c2ccc(S(C)(=O)=O)cc2)cc1)C(F)(F)F)C(=O)NCC#N (stereo not shown)
cysteine adduct formation (LC-MS UV trace; aqueous buffer; concentration not given, 23 h, pH 5.5, 37 °C, with: cysteine 10 mM): 5%

COCCN(CC(N)=O)C(=O)CN(CCOC)C(=O)CN(CCOC)C(=O)CN(CCOC)C(=O)CN(CCOC)C(=O)CN(CCOC)C(=O)CN(CCOC)C(=O)CN(CCCCC(N)C(=O)O)C(=O)CN(CCOC)C(=O)CN(CCOC)C(=O)CN(CCOC)C(=O)CN(CCOC)C(=O)CN(CCOC)C(=O)CN(CCOC)C(=O)C(Cc1ccccc1)NC(C)=O (stereo not shown)
pKa of NH2 group (potentiometric titration with KOH; 100 x 1 mM KCl): 9.5

CN(C)c1ccc(-c2nc3ccc(OCCCCCN4CCN5CCN(CC4)CC(=O)[O][Al]([18F])[O]C(=O)C5)cc3s2)cc1
tissue uptake (ICR mouse, spleen; intravenous, 10 min): 6.94 ± 1.83 %ID/g

CCOc1ccc2c(c1)C(C)CC(C)(C)N2 (stereo not shown)
tissue residue (LC-MS/MS; laying hens, liver; oral in feed, 50 mg/kg feed ethoxyquin, 56 days, after glucuronidase treatment): 0.8 ± 1 ng/g

CC[C@H](C)[C@H](NC(=O)[C@H](N)Cc1ccc(O)cc1)C(=O)N[C@H]1CSSC[C@@H](C(=O)N(C)[C@H](C(N)=O)[C@@H](C)CC)NC(=O)[C@H](CCCNC(=N)N)NC(=O)[C@H](Cc2c[nH]cn2)NC(=O)[C@H](C)NC(=O)CN(C)C(=O)[C@H](Cc2c[nH]c3ccccc23)NC(=O)[C@H](CC(=O)O)NC(=O)[C@H](CCC(N)=O)NC(=O)[C@H](Cc2cn(C)c3ccccc23)NC(=O)[C@H](C(C)C)NC1=O
recovery (UPLC-ESI-MS; cynomolgus monkey plasma; 3.58 µg/mL, 24 h, 25 °C, bench-top after SPE): 103 ± 7.8%

CC12CC3CC(C)(C1)CC(NC(=O)Nc1ccc(C(=O)N4CCCC(C(N)=O)C4)cc1)(C3)C2 (stereo not shown)
Vz (Sprague Dawley rats, both sexes, plasma; oral, 10 mg/kg): 224 L

C[C@H]1NSc2nc(=O)c3[nH]ccc3n2Cc2ccc(Cl)cc21
exposure ratio (female rats, plasma; 125 mg/kg, human dose 10 mg; relative to: rat over human): not detected

CC(C)[C@H](NC(=O)[C@@H]1CCCN1C(=O)[C@H](CCCNC(=N)N)NC(=O)[C@H](CS)NC(=O)[C@H](Cc1c[nH]c2ccccc12)NC(=O)[C@H](CCCNC(=N)N)NC(=O)[C@@H](Cc1ccccc1)NC(=O)[C@H](Cc1c[nH]cn1)NC(=O)[C@H](CCC(=O)O)NC(=O)[C@H](CS)NC(=O)[C@H](CS)NC(=O)CNC(=O)[C@@H]1CC(=O)N[C@@H](CCCNC(=N)N)C(=O)NCC(=O)N[C@@H](CC(=O)O)C(=O)N[C@H](Cc2ccc(O)cc2)C(=O)N1)C(N)=O [technetium-99m labelled]
tumour-to-tissue ratio (C57 mice B16/F1 melanoma female; iv, 2 h, with: NDP-MSH blockade; relative to: tumour over liver): 1.01

COc1cc2c(cc1OC)CN(CCCCn1ccc3cc(OCC[18F])ccc31)C2
spleen uptake (male ICR mice; intravenous, 30 min post-injection): 8.69 ± 0.95 %ID/g

CN1CC[C@H](c2c(O)cc(O)c3c(=O)cc(/C=C/c4c(Cl)cccc4Cl)oc23)[C@H](O)C1.O=C(O)CNC(=O)c1ccccc1
dissolved fraction (dissolution, USP paddle apparatus; water, 0.25% SLS; 120 min, 37 °C, sink conditions): 12%

CC(C)(C)[C@H](NC(=O)[C@H](CCONC(=N)N)NC(=O)Cc1ccc(CNC(=N)N)cc1)C(=O)N[C@@H](CCONC(=N)N)C(=O)NCc1ccc(C(=N)N)cc1
depletion (human liver microsomes 0.7 mg/mL; 50 µM, 5 min, pH 7.4): 7.6%

C[C@H](CN(C)Cc1ccccc1)NC(=O)c1ccc(-c2noc(C(F)(F)[18F])n2)cc1
brain-to-heart ratio (PET; Sprague-Dawley rat, female, brain and heart; intravenous, 30 min; relative to: brain SUV over heart SUV): 3.01 ± 0.23

O=C([O-])CN1CCN(CC(=O)[O-])CCN(CC(=O)NCCc2ccc3c(c2)C2C=CCC2C(c2cc4c(cc2Br)OCO4)N3)CCN(CC(=O)[O-])CC1.[111In+3] (stereo not shown)
tissue uptake (mouse, Hec50 tumour-bearing, urinary bladder; 2 h, with: blocking with 5 µg G-1): 0.5 ± 0.16 %ID/g

CN1CCC[C@]1(C)/C=C/S(=O)(=O)NC(=O)Nc1c2c(cc3c1CCC3)CCC2
CL/F (human, plasma; oral, 25 mg single dose): 0.9 L/h

Cc1ccc(OCC(=O)N(Cc2cccs2)c2ccn[nH]2)cc1
bioavailability (male Sprague-Dawley rat, plasma; oral, 10 mg/kg, single dose): 0.07%

C=C(c1cc(F)c(C(=O)O)c(F)c1)c1cc2c(cc1C)C(C)(C)CCC2(C)C
blood triglycerides (Sprague-Dawley rat, male; oral, 100 mg/kg, 1 h, sesame oil vehicle): 50 ± 19.1 mg/dL

NCCC(=O)N1Cc2ccccc2-c2c(nnn2-c2nc3c(N)ncnc3n2C2OC(CO)C(O)C2O)-c2ccccc21 (mixture of isomers)
excitation maximum (methanol): 293 nm

Cn1c(=O)oc2ccc(-c3ccc(CC(C#N)NC(=O)C4CNCCCO4)c(F)c3)cc21 (stereo not shown)
treatment-related adverse event incidence (item: blood triglycerides increased; human volunteers; oral, 40 mg, single ascending dose fed): 0%

O=C(CCc1ccc(CNC(C(=O)OC2CCCC2)C2CCCCC2)cn1)NO (stereo not shown)
Cmax (human, plasma; oral, 10 mg, single dose, patients): 42.8 ng/mL

CCCC[C@H](NC(C)=O)C(=O)N[C@H]1CC(=O)NCCCC[C@@H](C(=O)N[C@@H](C(=O)N2CCC[C@@H]2C(N)=O)C(C)C)NC(=O)[C@H](Cc2c[nH]c3ccccc23)NC(=O)[C@H](CCCN=C(N)N)NC(=O)[C@@H](Cc2ccc3ccccc3c2)NC(=O)[C@@H]2CCCN2C1=O
plasma histamine (healthy dogs, plasma; subcutaneous, 2.25 mg/kg per day, day 28 predose, median): 17.5 ng/mL

CC1(c2ccc([C@H]3C[C@@]4(C)[C@@H](CC[C@@]4(O)C(F)(F)C(F)(F)F)[C@@H]4CCC5=CC(=O)CCC5=C43)cc2)COC1
maximal oral bioavailability (rat liver microsomes; 100 % absorption assumed): 47%

CCCCC/C=C/C=C/C(=O)NCC(C)C
relative error (rat plasma; 250 ng/mL, 48 h, 4 °C, short-term storage medium QC; relative to: nominal concentration): -1.73%

CCOc1c(C(C)(C)O)sc2cnc(Nc3ccc(N4CCC(N5CC6(COC6)C5)CC4)cc3OC)nc12
action potential amplitude change (New Zealand rabbit, male, isolated Purkinje fibres; 30 µM, 45 min, pacing 0.25 Hz): -4 ± 2%

NC[C@@H](C(=O)Nc1ccc(-c2cn[nH]c2)cc1)c1ccccc1
cornea score (OECD 405 eye irritation; New Zealand White rabbit, eye; topical, 0.1%, 32 h (day 2), scale 0 to 4; direction not given): 0

Cc1cnc(Nc2cc(C)c(C)c(C)c2)nc1Nc1ccc2oc(=O)[nH]c2c1
Vss (rat, plasma; intravenous, 1.0 mg/kg): 1.3 L/kg

CCCC[C@H](NC(=O)CNC(=O)CNC(=O)CN1CCN(CC(=O)O)CCN(CC(=O)O)CC1)C(=O)N[C@H]1CC(=O)NCCCC[C@@H](C(N)=O)NC(=O)[C@H](Cc2c[nH]c3ccccc23)NC(=O)[C@H](CCCNC(=N)N)NC(=O)[C@@H](Cc2ccccc2)NC(=O)[C@H](Cc2c[nH]cn2)NC1=O [copper-64 labelled]
uptake ratio (female C57 mouse, B16/F1 melanoma; intravenous, 0.037 MBq, 4 h; relative to: tumour over lung): 17.9
